Assay results gathered from unrelated publications.
Protocols differ between the studies behind these lines. “And” joins repeats or separate records; there may be more than shown. Converted amounts (≈) assume the structure as drawn.

CN(C)c1ccc(Nc2n[nH]c3nc(-c4ccccc4)nc(N)c23)cc1  IC50 (rhinovirus B5; viral cytopathic effect; HeLa): 140 nM
COc1cccc(CNC(=O)CCC2CCCN(C/C=C/c3ccccc3OC)C2)c1 (centres unmarked)  translation activity (Trypanosoma cruzi; reporter mRNA translation, inhibitor, item: capped polyadenylated Renilla luciferase mRNA; cell-free extract; concentration not given; baseline: positive over negative control): 105% and 96.2% and 95.7% and 86.2%
COc1ccc(CNc2nc([C@H]3CC[C@H](C(=O)O)CC3)nc3sc4ccccc4c23)cc1Cl  parasite vacuole ratio (Cryptosporidium parvum; egress and reinvasion; HCT-8; 2 x EC90, 19.5 h, compound added 6 h postinfection; baseline: vacuoles at 6 h): 1.14 and 1.04 and 1.05
O=c1[nH]cc(C(c2cccc(Cl)c2)c2c[nH]c(=O)[nH]c2=O)c(=O)[nH]1  inhibition (HIV-1 subtype C; p24 antigen production, p24 ELISA; 62.5 µg/mL): 50%
CCc1ccc(CN2CCCC(CNC(=O)c3cccc(OC)c3OC)C2)cc1 (centres unmarked)  translation activity (Trypanosoma cruzi; reporter mRNA translation, inhibitor, item: Renilla luciferase mRNA; cell-free extract; concentration not given, test 2; baseline: positive over negative control): 109% and 99.7%
Cc1cccc2c1N(C(=O)n1ccnn1)CC2  hypocotyl length (Arabidopsis thaliana; wild type; 3 µM, seedlings): 10.8 mm
O=c1[nH]cc(C(c2cccc(C(F)(F)F)c2)c2c[nH]c(=O)[nH]c2=O)c(=O)[nH]1  inhibition (HIV-1 subtype C; p24 antigen production, p24 ELISA; 31.25 µg/mL): < 25%
[2H]C([2H])(N)C([2H])([2H])NC(=O)c1cc(C2CC2)nc2c1cnn2C(C)C  plaque reduction (Enterovirus A71; viral replication; Tainan/4643/1998; 300 nM): 0%
CC1=C(C)[C@H](Oc2c(F)cc3c(C)cc(=O)oc3c2F)OC1=O  EC50 (Phelipanche ramosa; seed germination, stimulant; seeds): 66 nM
O=c1[nH]cc(C(c2ccccc2Br)c2c[nH]c(=O)[nH]c2=O)c(=O)[nH]1  inhibition (HIV-1 subtype C; p24 antigen production, p24 ELISA; 1.95 µg/mL): < 25%
COc1cc(C(=O)O)ccc1NC(=O)c1ccc(NC(=O)c2ccc(NC(=O)[C@H](Cc3c[nH]nn3)NC(=O)c3ccc(NC(=O)/C(C)=C/c4ccc(O)cc4)cc3)cc2)cc1O  MIC (Salmonella enterica serovar Kentucky; broth microdilution; ciprofloxacin-sensitive): 0.5 µg/mL (≈ 0.596 µM)
C=C(NC(=O)c1csc(-c2nc3c(cc2O)-c2nc(cs2)C(=O)NC(C(C)O)C(=O)NC(=C(C)OC)c2nc(cs2)C(=O)NC2c4nc(cs4)C(=O)NC(COC(=O)c4c5c6c(cccc6n4O)COC(=O)C(OC4CC(C)(O)C(N(C)C)C(C)O4)C2OC5)c2nc-3cs2)n1)C(N)=O (centres unmarked)  MIC50 (Streptococcus pyogenes; 10 isolates; serum 75%): 0.0156 µg/mL (≈ 0.0109 µM)
O=c1[nH]cc(C(c2ccc(Cl)cc2)c2c[nH]c(=O)[nH]c2=O)c(=O)[nH]1  inhibition (HIV-1 subtype C; p24 antigen production, p24 ELISA; 7.8 µg/mL): < 25%
CC1=C[C@@H](O/C=C2/C(=O)O[C@H]3c4ccccc4C[C@@H]23)OC1=O  maximum germination (Arabidopsis thaliana; Col-0): 80%

Repeated from above:
O=c1[nH]cc(C(c2cccc(C(F)(F)F)c2)c2c[nH]c(=O)[nH]c2=O)c(=O)[nH]1  inhibition (HIV-1 subtype C; p24 antigen production, p24 ELISA; 31.25 µg/mL): < 25%
